# Measured values gathered from unrelated publications.
# Every numbered part comes from another study and shows a few of its results, in no order.
# Chain of UniProt Q9UQM7 (whole entry, looked up): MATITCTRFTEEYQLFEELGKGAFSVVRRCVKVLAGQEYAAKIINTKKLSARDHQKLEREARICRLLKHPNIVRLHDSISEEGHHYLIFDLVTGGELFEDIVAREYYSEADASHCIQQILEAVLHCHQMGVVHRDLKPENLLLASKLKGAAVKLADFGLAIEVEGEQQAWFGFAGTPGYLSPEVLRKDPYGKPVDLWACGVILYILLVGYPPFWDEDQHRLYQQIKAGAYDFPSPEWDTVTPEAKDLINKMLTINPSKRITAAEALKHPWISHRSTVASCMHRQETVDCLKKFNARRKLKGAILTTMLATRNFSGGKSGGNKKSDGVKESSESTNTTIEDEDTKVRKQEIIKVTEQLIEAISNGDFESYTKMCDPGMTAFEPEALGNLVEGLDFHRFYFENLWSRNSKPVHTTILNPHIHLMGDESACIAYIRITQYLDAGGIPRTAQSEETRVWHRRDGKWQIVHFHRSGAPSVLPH
# Chain of UniProt P0C264 (whole entry, looked up): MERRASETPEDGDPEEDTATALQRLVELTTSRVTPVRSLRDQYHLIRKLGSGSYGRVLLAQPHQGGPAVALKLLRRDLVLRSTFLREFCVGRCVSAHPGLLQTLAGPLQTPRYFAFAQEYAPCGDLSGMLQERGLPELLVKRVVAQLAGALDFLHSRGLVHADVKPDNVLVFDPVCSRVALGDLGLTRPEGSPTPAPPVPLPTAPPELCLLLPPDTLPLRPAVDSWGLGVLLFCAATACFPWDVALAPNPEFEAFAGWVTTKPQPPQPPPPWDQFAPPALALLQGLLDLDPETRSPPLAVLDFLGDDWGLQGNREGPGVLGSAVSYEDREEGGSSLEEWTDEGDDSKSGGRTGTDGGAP
# Chain of UniProt Q16566 (whole entry, looked up): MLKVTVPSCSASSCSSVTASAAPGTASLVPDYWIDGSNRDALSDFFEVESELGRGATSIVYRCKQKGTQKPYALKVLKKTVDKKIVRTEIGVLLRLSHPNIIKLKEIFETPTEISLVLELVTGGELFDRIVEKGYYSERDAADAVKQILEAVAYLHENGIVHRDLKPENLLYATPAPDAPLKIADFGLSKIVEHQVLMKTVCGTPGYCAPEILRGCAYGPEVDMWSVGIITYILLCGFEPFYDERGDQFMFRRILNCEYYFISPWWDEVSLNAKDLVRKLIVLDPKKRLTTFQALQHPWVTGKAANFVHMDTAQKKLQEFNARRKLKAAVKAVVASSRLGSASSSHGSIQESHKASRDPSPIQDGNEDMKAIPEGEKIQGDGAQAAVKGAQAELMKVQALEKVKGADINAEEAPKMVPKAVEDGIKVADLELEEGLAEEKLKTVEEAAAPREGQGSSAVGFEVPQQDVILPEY
# Chain of UniProt P42336 (whole entry, unmodified, looked up): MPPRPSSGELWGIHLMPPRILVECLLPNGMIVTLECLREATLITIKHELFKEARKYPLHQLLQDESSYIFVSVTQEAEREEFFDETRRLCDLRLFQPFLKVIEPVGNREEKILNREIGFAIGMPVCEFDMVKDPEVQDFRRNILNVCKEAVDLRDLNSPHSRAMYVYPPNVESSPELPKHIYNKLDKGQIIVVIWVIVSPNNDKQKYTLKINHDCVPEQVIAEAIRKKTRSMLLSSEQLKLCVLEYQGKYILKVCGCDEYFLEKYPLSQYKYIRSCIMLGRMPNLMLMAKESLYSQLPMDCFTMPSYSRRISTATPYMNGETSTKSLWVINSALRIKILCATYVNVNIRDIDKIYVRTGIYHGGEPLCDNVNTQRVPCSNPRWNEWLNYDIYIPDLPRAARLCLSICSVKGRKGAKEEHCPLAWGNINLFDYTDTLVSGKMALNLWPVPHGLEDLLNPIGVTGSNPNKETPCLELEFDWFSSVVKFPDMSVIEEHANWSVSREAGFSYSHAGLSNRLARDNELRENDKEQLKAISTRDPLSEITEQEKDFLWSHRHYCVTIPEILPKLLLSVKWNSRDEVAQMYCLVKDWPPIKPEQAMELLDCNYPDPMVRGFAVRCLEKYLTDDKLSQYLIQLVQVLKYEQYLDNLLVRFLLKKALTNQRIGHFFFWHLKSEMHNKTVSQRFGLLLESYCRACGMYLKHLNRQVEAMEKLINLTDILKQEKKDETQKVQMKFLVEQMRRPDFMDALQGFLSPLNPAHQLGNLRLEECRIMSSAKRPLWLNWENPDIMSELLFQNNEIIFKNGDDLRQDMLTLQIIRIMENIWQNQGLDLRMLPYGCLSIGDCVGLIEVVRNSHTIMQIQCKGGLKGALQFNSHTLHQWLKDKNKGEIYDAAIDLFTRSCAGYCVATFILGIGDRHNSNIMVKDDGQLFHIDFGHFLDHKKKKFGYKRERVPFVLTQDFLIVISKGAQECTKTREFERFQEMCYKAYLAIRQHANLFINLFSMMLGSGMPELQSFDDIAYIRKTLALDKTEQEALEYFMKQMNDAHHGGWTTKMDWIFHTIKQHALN
# Chain of UniProt P53778 (whole entry, looked up): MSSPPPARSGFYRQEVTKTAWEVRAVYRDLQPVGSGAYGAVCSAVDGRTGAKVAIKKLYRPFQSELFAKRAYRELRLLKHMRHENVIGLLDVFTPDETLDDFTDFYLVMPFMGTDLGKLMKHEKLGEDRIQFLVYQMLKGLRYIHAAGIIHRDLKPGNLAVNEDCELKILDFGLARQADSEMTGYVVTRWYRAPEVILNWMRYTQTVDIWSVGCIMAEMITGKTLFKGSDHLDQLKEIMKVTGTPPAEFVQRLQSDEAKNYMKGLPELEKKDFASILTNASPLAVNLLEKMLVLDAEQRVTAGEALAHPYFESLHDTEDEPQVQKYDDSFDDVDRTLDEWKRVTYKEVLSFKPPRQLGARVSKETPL
# Chain of UniProt Q00526 (whole entry, looked up): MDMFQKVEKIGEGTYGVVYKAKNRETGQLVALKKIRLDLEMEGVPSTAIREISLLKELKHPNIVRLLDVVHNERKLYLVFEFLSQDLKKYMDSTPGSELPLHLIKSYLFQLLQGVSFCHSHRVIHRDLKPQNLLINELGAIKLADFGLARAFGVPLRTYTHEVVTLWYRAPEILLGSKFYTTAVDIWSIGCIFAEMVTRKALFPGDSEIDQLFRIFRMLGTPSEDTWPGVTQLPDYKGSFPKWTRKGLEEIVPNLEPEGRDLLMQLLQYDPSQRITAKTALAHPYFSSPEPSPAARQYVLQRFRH
# Chain of UniProt P49761 (whole entry, looked up): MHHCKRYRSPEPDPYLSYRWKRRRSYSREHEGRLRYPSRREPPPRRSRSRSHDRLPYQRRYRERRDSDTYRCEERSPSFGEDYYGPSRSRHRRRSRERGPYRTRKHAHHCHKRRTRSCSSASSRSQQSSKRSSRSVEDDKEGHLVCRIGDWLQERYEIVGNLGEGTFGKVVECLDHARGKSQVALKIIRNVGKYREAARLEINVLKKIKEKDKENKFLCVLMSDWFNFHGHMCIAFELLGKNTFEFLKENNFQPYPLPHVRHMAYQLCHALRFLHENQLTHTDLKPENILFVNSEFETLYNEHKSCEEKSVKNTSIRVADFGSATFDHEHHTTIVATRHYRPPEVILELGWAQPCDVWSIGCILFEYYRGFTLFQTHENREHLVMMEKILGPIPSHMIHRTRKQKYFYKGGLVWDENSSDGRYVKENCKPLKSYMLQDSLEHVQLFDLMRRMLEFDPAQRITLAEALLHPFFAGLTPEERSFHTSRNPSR

# Set 1 — organism: Sarcocystis neurona; observed: parasite growth; concentration: 10 µM; setting: first screen; baseline: untreated
Compound,log2 fold change
COc1ccc2[n-]c([S+]([O-])Cc3ncc(C)c(OC)c3C)nc2c1.COc1ccc2[n-]c([S+]([O-])Cc3ncc(C)c(OC)c3C)nc2c1.[Mg+2] (stereo not drawn),-0.22
CC(COc1ccccc1Cc1ccccc1)N1CCCCC1.O=P(O)(O)O (stereo not drawn),-0.0655
C[C@]12CCC(=O)C=C1CC[C@@H]1[C@@H]2CC[C@@]2(C)[C@H]1CC[C@]2(O)C(=O)CO,-0.16
C[C@H]1C[C@H]2[C@@H]3CCC4=CC(=O)C=C[C@]4(C)[C@@]3(Cl)[C@@H](O)C[C@]2(C)[C@@]1(O)C(=O)CO,-0.11
Nc1ccc2cn[nH]c2c1,0.15
O=c1[nH]c(=O)n([C@H]2C[C@H](O)[C@@H](CO)O2)cc1F,-1.66
CCCCC(=O)O[C@H]1CC[C@H]2[C@@H]3CCc4cc(O)ccc4[C@H]3CC[C@]12C,0.12
CN1CCc2cc(Cl)c(O)cc2[C@@H](c2ccccc2)C1.Cl,0.0844
CC1(C)S[C@@H]2[C@H](NC(=O)Cc3ccccc3)C(=O)N2[C@H]1C(=O)[O-].[K+],0.26
Fc1ccc([C@@H]2CCNC[C@H]2COc2ccc3c(c2)OCO3)cc1.O=C(O)/C=C\C(=O)O,-0.21

# Set 2 — observed: cell-free assay; technique: competition with immobilised ligand; concentration: 0.1 µM
# Structure (SMILES): CC(C)CC(=O)N1CCc2nc(-c3ccc(Br)cc3)nc(N(C)Cc3ccccc3)c2C1
target,remaining binding [%]
"DAPK1 (Homo sapiens, UniProt P53355)",100
"CLK3 (Homo sapiens, UniProt P49761)",100
"EGFR (Homo sapiens, UniProt P00533)",100
"MAPK12 (Homo sapiens, UniProt P53778)",79
"SBK3 (Homo sapiens, UniProt P0C264)",100
"PIK3CA (Homo sapiens, UniProt P42336, E545K)",85
"CDK15 (Homo sapiens, UniProt Q96Q40)",100
"Macrophage colony-stimulating factor 1 receptor, autoinhibited (CSF1R, Homo sapiens, UniProt P07333)",100
"CAMK4 (Homo sapiens, UniProt Q16566)",100
"CAMK2A (Homo sapiens, UniProt Q9UQM7)",100
"Aurora kinase A (AURKA, Homo sapiens, UniProt O14965)",72
"FGFR2 (Homo sapiens, UniProt P21802)",100
"CDK3 (Homo sapiens, UniProt Q00526)",100
"KIT (Homo sapiens, UniProt P10721, D816V)",100
"MUSK (Homo sapiens, UniProt O15146)",100

# Set 3 — observed: enzyme activity; action: inhibitor; concentration: 10 µM
# Target: Calcium/calmodulin-dependent protein kinase type II subunit alpha (CAMK2A, Homo sapiens, UniProt Q9UQM7)
SMILES,inhibition
C[n+]1ccccc1/C=N/O,-7%
Nc1ccn([C@@H]2O[C@H](COP(=O)(O)OP(=O)(O)OP(=O)(O)O)[C@@H](O)[C@H]2O)c(=O)n1,0%
CC(N)CCCC(C)(C)O (stereo not drawn),1%
O=C(O)CC(O)(CC(=O)OCc1ccc(O[C@@H]2O[C@H](CO)[C@@H](O)[C@H](O)[C@H]2O)cc1)C(=O)O (stereo partly drawn),15%
O=C1c2ccccc2C(=O)c2cc(CO)ccc21,-30%
CN(C)[C@@H]1C(O)=C(C(N)=O)C(=O)[C@@]2(O)C(O)=C3C(=O)c4c(O)cccc4[C@@](C)(O)[C@H]3[C@H](O)[C@@H]12,2%

# Set 4 — cell line: HaCaT; concentration: 100 µM; time: 18 h
Structure (SMILES),viability
CN(C)[C@@H](CCOc1cccc2ccccc12)c1ccccc1,15.7%
CCN(CC)CCc1nc(-c2ccccc2)no1,55.8%
CC(C)NCC(O)COc1cccc2[nH]ccc12 (stereo not drawn),110%
CCCc1nc(C)c2c(=O)[nH]c(-c3cc(S(=O)(=O)N4CCN(CC)CC4)ccc3OCC)nn12,68.5%
CCOC(=O)C1=C(C)NC(C)=C(C(=O)OC)C1c1cccc([N+](=O)[O-])c1 (stereo not drawn),31.4%
CO[C@H]1/C=C/O[C@@]2(C)Oc3c(C)c(O)c4c(O)c(c5c(nc6cc(C)ccn65)c4c3C2=O)NC(=O)/C(C)=C\C=C\[C@H](C)[C@H](O)[C@@H](C)[C@@H](O)[C@@H](C)[C@H](OC(C)=O)[C@@H]1C,64.1%
CN(C)CCCN1c2ccccc2Sc2ccc(Cl)cc21,17.7%
Cc1ccc(S(=O)(=O)NC(=O)NN2CC3CCC[C@@H]3C2)cc1 (stereo in doubt),94.2%
CC1(C)C[C@@H]1C(=O)N/C(=C\CCCCSC[C@H](N)C(=O)O)C(=O)O,111%
CCCCc1nc(Cl)c(CO)n1Cc1ccc(-c2ccccc2-c2nn[nH]n2)cc1,111%
COc1ccc2cc3[n+](cc2c1OC)CCc1cc2c(cc1-3)OCO2,121%

# Excerpt of the above (set 1):
Compound,log2 fold change
CC1(C)S[C@@H]2[C@H](NC(=O)Cc3ccccc3)C(=O)N2[C@H]1C(=O)[O-].[K+],0.26
Fc1ccc([C@@H]2CCNC[C@H]2COc2ccc3c(c2)OCO3)cc1.O=C(O)/C=C\C(=O)O,-0.21
Nc1ccc2cn[nH]c2c1,0.15
CCCCC(=O)O[C@H]1CC[C@H]2[C@@H]3CCc4cc(O)ccc4[C@H]3CC[C@]12C,0.12
